Measurements pooled from the literature.
Every numbered part comes from another study and shows a few of its results, in no order. Values joined by “and” are separate records of one study, mostly repeats; a detail may differ.

Set 1
Species: mouse
Medium: microsomes or S9
Tested at: 2 µM
Time: 0.5 h
Structure (SMILES) | remaining compound
CNNC(=O)c1cc(Cl)cc(C)c1NC(=O)c1cc(Br)nn1-c1ncccc1Cl | 48%
COC(=O)C1(c2ccccc2)CCN(C(=O)CCn2cncn2)CC1 | 82%
CSc1nc2ccccc2c(=O)n1-c1ccccc1 | 1.18%

Set 2
SMILES: c1ccc(Oc2ccc(Nc3c4c(nc5ccccc35)CCC4)cc2)cc1
Organism: Leishmania donovani
Effect on: parasite growth
system | setting | inhibition
DD8 amphotericin B-resistant, intracellular amastigotes | 4 µM | 91% and 96% and 99% and 86% and 98%
DD8 amphotericin B-resistant, promastigotes | 3.33 µM | 51% and 63% and 54% and 66% and 56%
 | 20 µM, intracellular, amastigote | 89%
DD8 amphotericin B-resistant, intracellular amastigotes | 80 µM | 99% and 102% and 100% and 101%
DD8 amphotericin B-resistant, intracellular amastigotes | 0.004 µM | -1% and 1% and 5% and 2%

Set 3
Cell line: HEK-293T-ACE2-TMPRSS2
Method: cell count
Tested at: concentration not given
SMILES | viability [%]
CCc1cn[nH]c1C1CCCN(C(=O)c2cc3cc(Cl)cc(OC)c3o2)C1 (stereo not drawn) | 69
O=C1CN(C(=O)COc2ccc(C3SCCCS3)cc2)CCN1 | 100
Cc1ccsc1C(=O)N1CCN2C(=O)CNC(=O)C2C1 (stereo not drawn) | 106
ClC1(Cl)CC1CNc1ncnc2sc3c(c12)CCC3 (stereo not drawn) | 87
CCOc1ccc(-c2c(C)nn3c(-c4ccccc4)c(C(=O)Nc4cccnc4)cnc23)cc1OCC | 71
CCOC(=O)C1CCCN(c2ccc(-c3ccc(C)c(S(=O)(=O)N4CCOCC4)c3)nn2)C1 (stereo not drawn) | 87
O=C(CN1CC(=O)Oc2ccccc21)Nc1cc(C(F)(F)F)ccc1N1CCCCC1 | 67
Cc1ccc(CN(C)C(=O)CC(c2ccccc2)c2ccc3c(c2)OCO3)o1 (stereo not drawn) | 106

Further values, each from its own experiment
Structure (SMILES) | system | setting | endpoint | value
COc1ccc(-c2c(Nc3ccccn3)[nH]c3c(C4=CCCCC4)c(-c4ccccc4)nn3c2=O)cc1 | patients with advanced malignancies | oral, dose not given, treatment-emergent adverse events | grade 3 alkaline phosphatase increased incidence | 5%
CC[C@H]1C(=O)N[C@@H](CC(C)C)C(=O)N2CCC[C@@H]2C(=O)N(C)[C@@H](Cc2ccccc2)C(=O)N[C@@H](CC(C)C)C(=O)N(C)[C@H](C)C(=O)N1C |  | pH 7.4, average | logD | 2.17

A few entries again (set 2):
system | setting | inhibition
DD8 amphotericin B-resistant, intracellular amastigotes | 4 µM | 91% and 96% and 99% and 86% and 98%
DD8 amphotericin B-resistant, intracellular amastigotes | 80 µM | 99% and 102% and 100% and 101%
 | 20 µM, intracellular, amastigote | 89%
